Results pooled from the literature.
Compare with care: the assays were run in different laboratories. “And” joins repeats or separate records; there may be more than shown. Numbers after ± are the reported error.

Structure (SMILES) | target | assay | test system | conditions | how to read | quantity | value
Fc1ccc(Nc2nc(NC3CCCCC3)c3ccccc3n2)cc1F | β2AR/β1AR ECL3 chimera | β-arrestin2 recruitment, antagonist, BRET |  | together with: isoprenaline 1 µM |  | pIC50 | 5.8
Nc1ncc(-c2cc(-c3cnn(CC(F)(F)F)c3)ncc2F)nc1C(=O)NC1CNCC(F)C1 (stereo not shown) | FLT3 | KINOMEscan |  | 1 µM | baseline: DMSO control | remaining binding | 84%
CC[C@H](C)[C@H](NC(=O)[C@H](CC(C)C)NC(=O)[C@H](C)NC(=O)[C@H](C)NC(=O)[C@@H]1CCCN1C(=O)[C@@H](NC(=O)[C@H](C)N)C(C)C)C(=O)N[C@@H](CC(C)C)C(=O)N[C@@H](CCCNC(=N)N)C(=O)N[C@@H](CCC(=O)O)C(=O)N[C@@H](CCCCN)C(=O)N[C@@H](CCCCN)C(=O)N[C@@H](CCCCN)C(=O)N[C@@H](CCCCNC(=O)CCCCCNC(=S)Nc1ccc2c(c1)C(=O)OC21c2ccc(O)cc2Oc2cc(O)ccc21)C(N)=O | XIAP (human) | DIABLO peptide pull-down |  | concentration not given, 100-fold competition | baseline: empty beads | log2 fold change | 7.92
C[S@@](=N)(=O)c1ccc(C(=O)Nc2cc(-c3ccc(F)cc3)ccc2N)cc1 | HDAC4, HDAC9, HDAC11 | enzyme activity |  | up to 50 µM |  | inhibition | no inhibition
O=C(NCc1ccc2c(c1)CN(C(=O)c1cc(-c3ccccc3)no1)C2)C1C=CC=CC=C1 | FSP1, ancestral | resazurin reduction, inhibitor |  | pH 7.2, together with: NADH, resazurin |  | IC50 | 0.443 ± 0.22 µM
Fc1ccc(Nc2nc(NC3CCCCC3)c3cc(C(F)(F)F)ccc3n2)cc1F | β2AR/β1AR ECL3 chimera | β-arrestin2 recruitment, antagonist, BRET |  |  | baseline: isoprenaline maximal response | maximal inhibition | -3.1%
c1ccc(-c2n[nH]cc2-c2ccnc3ccccc23)nc1 | CDC7 (Candida albicans) | kinase binding, MIB/MS competition | Candida albicans lysate | 10 µM | baseline: DMSO | log2 fold change | -0.1
NCCOc1cc(NC(=O)c2cc(Cl)cc(C(=O)Nc3cc(OCCN)c4ccccc4n3)n2)nc2ccccc12 | human telomeric G-quadruplex DNA | FRET melting |  | 1 µM, pH 7.4, together with: 60 mM potassium |  | ΔTm | 36.5 ± 0.9 K
Fc1ccc(Nc2nc(NC3CCCCC3)c3cc(Br)ccc3n2)cc1F | β2AR/β1AR ICL1 chimera | β-arrestin2 recruitment, antagonist, BRET |  | together with: isoprenaline 1 µM |  | pIC50 | 6.2
Cc1ccc(S(=O)(=O)N2N=Cc3ccsc3B2O)cc1 | human pancreatic trypsin | enzyme activity, inhibitor |  |  |  | IC50 | > 100 µM
C=CC(=O)N1[C@@H](c2ccc3c(c2)OCO3)c2[nH]c3ccccc3c2C[C@H]1C(=O)N1CCN(C)CC1 | CCNE1 WT-3xFLAG:CDK2 complex | co-IP TMT proteomics, refers to: RAB11FIP2 | HEK-293T | 20 µM, 6 h | baseline: DMSO | log2 fold change | 0.19
C=CC(=O)N1[C@H](c2ccc3c(c2)OCO3)c2[nH]c3ccccc3c2C[C@@H]1C(=O)NC | PQLC3 Cys135 human | cysteine IA-DTB labelling, covalent inhibitor, MS-ABPP | 22Rv1 | 20 µM, 3 h |  | inhibition | 27% and 22%
N[C@H]1CC[C@H](Nc2nccc(-c3cccnc3Oc3ccc(NC(=O)NC4CC4)c4ccccc34)n2)CC1 | NCK1 and NCK2 (human) | kinobead competition pulldown | HEK293/HCT116 lysate mixture | 10 µM, 1 h, 4 °C | lower = stronger competition | log2 LFQ intensity | 20 and 20.2 and 18.8 and 20.4
CC(C)(CO)Cc1cn(C2CCCN(C(=O)c3ccc4c(c3)CCOC4(C)C)CC2)nn1 (stereo not shown) | FSP1, ancestral | resazurin reduction, inhibitor |  | pH 7.2, together with: NADH, resazurin |  | IC50 | 6.43 ± 0.1 µM
Cc1cn(CC(=O)N(CC(=O)N[C@H]2CCC[C@@H]2N(CC(=O)N[C@H]2COC[C@@H]2N(CC(=O)N[C@H]2COC[C@@H]2N(CC(=O)N[C@H]2COC[C@@H]2N(CC(=O)NCCOCCOCC(N)=O)C(=O)Cn2cnc3c(N)ncnc32)C(=O)Cn2cc(C)c(=O)[nH]c2=O)C(=O)Cn2cnc3c(N)ncnc32)C(=O)Cn2cnc3c(=O)[nH]c(N)nc32)[C@H]2CCC[C@@H]2NC(=O)CN(C(=O)Cn2cnc3c(=O)[nH]c(N)nc32)[C@H]2CCC[C@@H]2NC(=O)CN(C(=O)Cn2cc(C)c(=O)[nH]c2=O)[C@H]2COC[C@@H]2NC(=O)CN(C(=O)Cn2cnc3c(N)ncnc32)[C@H]2COC[C@@H]2NC(=O)CN(C(=O)Cn2cnc3c(=O)[nH]c(N)nc32)[C@H]2COC[C@@H]2N)c(=O)[nH]c1=O | mismatched DNA TT | duplex formation, UV melting |  |  | baseline: complementary DNA | ΔTm | -19.5 °C
C[n+]1ccc(/C=N/NC(=O)c2cncc(C(=O)N/N=C/c3cc[n+](C)c4ccccc34)n2)c2ccccc21 | human telomeric G-quadruplex DNA | UV melting |  | 6 µM, 100 mM potassium, together with: DNA 3 µM |  | delta Tm | 21.8 °C
O=C(Nc1cc(OCCN2CCCC2)c2ccccc2n1)c1cccc(C(=O)Nc2cc(OCCN3CCCC3)c3ccccc3n2)n1 | human telomeric G-quadruplex DNA | FRET melting |  | 1 µM, pH 7.4, together with: 60 mM potassium |  | ΔTm | 22 ± 0.9 K
C[n+]1cc(NC(=O)c2ccc3ccc4ccc(C(=O)Nc5cc6ccccc6[n+](C)c5)nc4c3n2)cc2ccccc21 | telomeric antiparallel G-quadruplex DNA | UV melting |  | 3 µM, 10 mM potassium, together with: DNA 3 µM |  | delta Tm | 4 °C
C=CC(=O)Nc1cccc(Cn2ncc3cnc(Nc4cnn(CCOC)c4)nc32)c1 | human PKAC-beta | KINOMEscan |  | 100 nM | baseline: control | binding | 100%

A few entries again:
Structure (SMILES) | target | assay | test system | conditions | how to read | quantity | value
CC[C@H](C)[C@H](NC(=O)[C@H](CC(C)C)NC(=O)[C@H](C)NC(=O)[C@H](C)NC(=O)[C@@H]1CCCN1C(=O)[C@@H](NC(=O)[C@H](C)N)C(C)C)C(=O)N[C@@H](CC(C)C)C(=O)N[C@@H](CCCNC(=N)N)C(=O)N[C@@H](CCC(=O)O)C(=O)N[C@@H](CCCCN)C(=O)N[C@@H](CCCCN)C(=O)N[C@@H](CCCCN)C(=O)N[C@@H](CCCCNC(=O)CCCCCNC(=S)Nc1ccc2c(c1)C(=O)OC21c2ccc(O)cc2Oc2cc(O)ccc21)C(N)=O | XIAP (human) | DIABLO peptide pull-down |  | concentration not given, 100-fold competition | baseline: empty beads | log2 fold change | 7.92
